# Measured values collected from several papers.
# Sequences of proteins named here, by UniProt entry; tags and fusion partners are left off. A change or cut given only in a name is not applied to a line headed by its entry. Residues count along the entry.
# UniProt P45983, whole entry: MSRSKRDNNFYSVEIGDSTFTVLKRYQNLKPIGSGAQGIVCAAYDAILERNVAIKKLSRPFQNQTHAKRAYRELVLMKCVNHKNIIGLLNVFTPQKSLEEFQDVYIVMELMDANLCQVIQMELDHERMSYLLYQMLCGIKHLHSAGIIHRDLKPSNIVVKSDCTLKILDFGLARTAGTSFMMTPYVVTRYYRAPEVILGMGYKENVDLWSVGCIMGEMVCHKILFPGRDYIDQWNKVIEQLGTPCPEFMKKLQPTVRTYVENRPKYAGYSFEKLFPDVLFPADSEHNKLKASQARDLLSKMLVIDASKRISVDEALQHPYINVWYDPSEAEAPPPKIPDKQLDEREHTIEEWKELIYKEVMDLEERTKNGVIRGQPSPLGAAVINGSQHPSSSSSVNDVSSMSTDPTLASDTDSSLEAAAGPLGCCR
# UniProt P45983, 1-384 isoform 3: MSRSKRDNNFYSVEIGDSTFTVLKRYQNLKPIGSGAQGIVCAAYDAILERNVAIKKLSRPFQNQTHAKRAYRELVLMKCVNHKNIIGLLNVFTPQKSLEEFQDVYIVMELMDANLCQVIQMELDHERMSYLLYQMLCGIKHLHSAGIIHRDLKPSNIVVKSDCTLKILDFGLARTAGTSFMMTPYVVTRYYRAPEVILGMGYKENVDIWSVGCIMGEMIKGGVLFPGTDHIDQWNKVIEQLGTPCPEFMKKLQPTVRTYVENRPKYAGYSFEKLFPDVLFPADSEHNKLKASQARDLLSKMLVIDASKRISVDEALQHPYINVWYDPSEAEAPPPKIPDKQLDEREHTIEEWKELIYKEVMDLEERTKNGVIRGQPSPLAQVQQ
# UniProt P28867, 231-280 limits assumed: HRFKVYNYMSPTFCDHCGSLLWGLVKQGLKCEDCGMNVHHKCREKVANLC
# UniProt P42264, 32-919 limits assumed: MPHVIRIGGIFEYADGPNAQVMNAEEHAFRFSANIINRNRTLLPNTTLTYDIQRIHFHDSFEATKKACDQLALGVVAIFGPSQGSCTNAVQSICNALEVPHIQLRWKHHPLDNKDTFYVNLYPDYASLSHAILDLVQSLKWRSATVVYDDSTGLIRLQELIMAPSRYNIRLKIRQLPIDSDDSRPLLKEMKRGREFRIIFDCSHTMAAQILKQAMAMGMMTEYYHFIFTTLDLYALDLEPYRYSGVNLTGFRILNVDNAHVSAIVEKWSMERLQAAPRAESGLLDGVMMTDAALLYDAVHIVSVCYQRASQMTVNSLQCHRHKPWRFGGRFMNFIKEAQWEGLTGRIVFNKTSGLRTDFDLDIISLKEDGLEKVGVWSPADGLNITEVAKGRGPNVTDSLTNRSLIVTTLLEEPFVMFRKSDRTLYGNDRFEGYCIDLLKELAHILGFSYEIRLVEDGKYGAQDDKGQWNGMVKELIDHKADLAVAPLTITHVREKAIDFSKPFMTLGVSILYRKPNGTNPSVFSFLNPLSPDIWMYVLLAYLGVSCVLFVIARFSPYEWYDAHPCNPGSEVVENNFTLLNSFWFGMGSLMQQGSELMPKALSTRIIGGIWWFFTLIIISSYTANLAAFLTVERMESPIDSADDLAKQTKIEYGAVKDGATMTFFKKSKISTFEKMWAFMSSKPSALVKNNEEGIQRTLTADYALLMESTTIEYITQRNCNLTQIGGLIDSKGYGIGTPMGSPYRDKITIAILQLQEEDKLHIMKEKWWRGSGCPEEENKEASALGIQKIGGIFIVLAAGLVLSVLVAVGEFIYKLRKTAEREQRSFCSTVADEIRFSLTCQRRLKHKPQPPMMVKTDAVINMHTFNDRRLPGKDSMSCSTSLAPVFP
# UniProt Q9R0C9, whole entry: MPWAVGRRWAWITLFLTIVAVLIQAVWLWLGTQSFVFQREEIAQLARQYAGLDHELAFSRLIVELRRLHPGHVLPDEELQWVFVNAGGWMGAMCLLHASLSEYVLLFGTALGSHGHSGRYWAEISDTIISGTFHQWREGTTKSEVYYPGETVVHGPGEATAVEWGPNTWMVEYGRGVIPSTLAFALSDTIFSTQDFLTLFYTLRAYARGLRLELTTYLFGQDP
# UniProt P30542, whole entry: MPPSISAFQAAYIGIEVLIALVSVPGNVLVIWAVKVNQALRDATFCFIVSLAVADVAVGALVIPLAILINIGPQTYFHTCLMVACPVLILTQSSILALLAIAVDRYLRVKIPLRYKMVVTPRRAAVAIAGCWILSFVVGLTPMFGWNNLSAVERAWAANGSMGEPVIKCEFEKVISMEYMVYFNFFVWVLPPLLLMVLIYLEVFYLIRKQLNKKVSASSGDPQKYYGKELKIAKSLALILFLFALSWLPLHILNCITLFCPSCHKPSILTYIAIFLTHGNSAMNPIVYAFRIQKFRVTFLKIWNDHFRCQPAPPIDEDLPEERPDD
# UniProt Q9EP80, whole entry: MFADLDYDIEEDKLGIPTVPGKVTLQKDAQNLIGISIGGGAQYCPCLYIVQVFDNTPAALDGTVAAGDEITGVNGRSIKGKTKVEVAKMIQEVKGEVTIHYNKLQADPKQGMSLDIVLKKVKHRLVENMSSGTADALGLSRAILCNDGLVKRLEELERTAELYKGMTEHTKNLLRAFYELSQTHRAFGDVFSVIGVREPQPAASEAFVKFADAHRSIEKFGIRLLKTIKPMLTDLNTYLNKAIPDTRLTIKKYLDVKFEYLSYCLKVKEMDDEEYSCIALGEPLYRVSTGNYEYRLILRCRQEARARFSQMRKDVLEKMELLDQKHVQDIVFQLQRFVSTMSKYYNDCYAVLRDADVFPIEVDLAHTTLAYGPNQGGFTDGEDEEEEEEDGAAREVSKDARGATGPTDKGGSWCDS
# UniProt Q9U419, whole entry: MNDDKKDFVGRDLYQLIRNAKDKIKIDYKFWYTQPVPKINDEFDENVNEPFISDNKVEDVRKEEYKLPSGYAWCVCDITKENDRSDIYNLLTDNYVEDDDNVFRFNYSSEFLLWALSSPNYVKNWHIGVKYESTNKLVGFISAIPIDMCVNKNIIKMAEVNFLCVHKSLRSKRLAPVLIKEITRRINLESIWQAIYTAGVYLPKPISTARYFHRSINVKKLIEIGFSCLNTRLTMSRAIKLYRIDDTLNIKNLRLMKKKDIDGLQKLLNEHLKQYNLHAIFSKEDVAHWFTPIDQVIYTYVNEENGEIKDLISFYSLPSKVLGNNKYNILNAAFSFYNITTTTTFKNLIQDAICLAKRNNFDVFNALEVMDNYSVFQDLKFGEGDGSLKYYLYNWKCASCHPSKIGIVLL
# UniProt P07384, whole entry: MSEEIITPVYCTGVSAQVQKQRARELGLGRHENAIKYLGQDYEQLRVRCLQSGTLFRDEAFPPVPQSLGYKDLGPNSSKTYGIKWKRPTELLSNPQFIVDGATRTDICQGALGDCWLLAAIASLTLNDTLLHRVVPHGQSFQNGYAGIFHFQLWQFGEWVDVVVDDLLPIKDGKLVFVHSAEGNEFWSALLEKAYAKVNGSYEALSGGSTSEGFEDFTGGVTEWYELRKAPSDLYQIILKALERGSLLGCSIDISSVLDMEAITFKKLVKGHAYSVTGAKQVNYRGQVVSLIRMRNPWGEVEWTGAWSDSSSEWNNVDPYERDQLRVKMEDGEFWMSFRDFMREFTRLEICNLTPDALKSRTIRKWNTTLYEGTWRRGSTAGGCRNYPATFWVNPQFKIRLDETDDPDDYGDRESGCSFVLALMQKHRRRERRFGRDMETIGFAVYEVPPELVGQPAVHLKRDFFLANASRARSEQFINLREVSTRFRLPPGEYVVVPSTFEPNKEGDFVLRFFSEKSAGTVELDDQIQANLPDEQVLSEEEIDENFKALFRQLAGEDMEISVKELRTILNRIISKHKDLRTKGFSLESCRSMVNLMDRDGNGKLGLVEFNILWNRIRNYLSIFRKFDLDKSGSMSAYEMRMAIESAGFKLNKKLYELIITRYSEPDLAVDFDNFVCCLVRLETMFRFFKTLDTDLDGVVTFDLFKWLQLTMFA
# UniProt P40261, whole entry: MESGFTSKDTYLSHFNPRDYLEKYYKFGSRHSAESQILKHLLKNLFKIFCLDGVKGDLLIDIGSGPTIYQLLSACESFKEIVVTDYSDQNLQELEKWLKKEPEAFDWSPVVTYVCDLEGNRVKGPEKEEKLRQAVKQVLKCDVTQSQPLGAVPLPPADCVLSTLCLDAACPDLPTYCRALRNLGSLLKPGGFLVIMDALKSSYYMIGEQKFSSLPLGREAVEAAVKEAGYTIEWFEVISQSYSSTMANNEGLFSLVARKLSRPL
# UniProt P21917, whole entry: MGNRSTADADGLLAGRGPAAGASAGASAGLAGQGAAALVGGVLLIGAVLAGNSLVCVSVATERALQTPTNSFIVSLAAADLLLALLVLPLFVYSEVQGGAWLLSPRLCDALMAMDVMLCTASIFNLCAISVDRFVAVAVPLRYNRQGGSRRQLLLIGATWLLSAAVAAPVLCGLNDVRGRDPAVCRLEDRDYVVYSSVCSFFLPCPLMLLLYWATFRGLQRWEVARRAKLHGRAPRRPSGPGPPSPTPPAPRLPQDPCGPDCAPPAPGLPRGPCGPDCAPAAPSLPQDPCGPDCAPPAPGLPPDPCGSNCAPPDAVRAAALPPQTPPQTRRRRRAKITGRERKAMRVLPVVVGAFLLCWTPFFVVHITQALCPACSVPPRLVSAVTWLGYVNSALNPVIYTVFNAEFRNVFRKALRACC
# UniProt Q04609, whole entry: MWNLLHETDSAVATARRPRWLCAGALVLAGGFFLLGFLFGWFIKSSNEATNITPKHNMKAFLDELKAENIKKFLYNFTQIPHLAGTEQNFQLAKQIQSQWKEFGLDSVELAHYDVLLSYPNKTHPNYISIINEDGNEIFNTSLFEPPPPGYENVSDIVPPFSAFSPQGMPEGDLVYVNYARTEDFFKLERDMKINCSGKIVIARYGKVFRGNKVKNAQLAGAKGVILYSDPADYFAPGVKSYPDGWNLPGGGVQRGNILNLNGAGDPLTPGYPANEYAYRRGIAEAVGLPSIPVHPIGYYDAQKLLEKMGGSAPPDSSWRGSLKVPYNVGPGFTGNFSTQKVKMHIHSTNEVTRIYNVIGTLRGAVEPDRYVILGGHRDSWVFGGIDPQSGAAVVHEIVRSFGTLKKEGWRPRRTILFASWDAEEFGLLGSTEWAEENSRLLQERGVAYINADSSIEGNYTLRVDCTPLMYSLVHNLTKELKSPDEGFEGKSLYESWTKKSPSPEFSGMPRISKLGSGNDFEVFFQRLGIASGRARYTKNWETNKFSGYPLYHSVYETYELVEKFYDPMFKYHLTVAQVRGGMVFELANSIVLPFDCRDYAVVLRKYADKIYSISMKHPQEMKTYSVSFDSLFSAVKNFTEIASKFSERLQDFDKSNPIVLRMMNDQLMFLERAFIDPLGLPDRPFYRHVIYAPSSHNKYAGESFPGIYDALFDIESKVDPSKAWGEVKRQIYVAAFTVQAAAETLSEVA
# UniProt P04632, whole entry partner: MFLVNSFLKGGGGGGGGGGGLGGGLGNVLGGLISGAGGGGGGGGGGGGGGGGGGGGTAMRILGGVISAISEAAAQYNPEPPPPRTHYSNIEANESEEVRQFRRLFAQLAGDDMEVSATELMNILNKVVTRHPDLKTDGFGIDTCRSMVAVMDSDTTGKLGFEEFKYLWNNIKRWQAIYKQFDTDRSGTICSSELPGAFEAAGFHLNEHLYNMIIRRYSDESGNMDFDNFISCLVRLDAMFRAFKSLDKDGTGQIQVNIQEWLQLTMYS
# ± marks the error that the study gave.
# MAPK8: Mitogen-activated protein kinase 8 (MAPK8, Homo sapiens, UniProt P45983)
# Prkcd C1b domain: Protein kinase C delta type, C1b domain (Prkcd, Mus musculus, UniProt P28867)
# Glutamate receptor ionotropic, kainate 3: Glutamate receptor ionotropic, kainate 3 (Rattus norvegicus, UniProt P42264)
SMILES,target,test,system,conditions,Ki
C/C(=N\OCCN1CCCCCC1)c1ccc(C(F)(F)F)cc1,"Sigmar1 (Rattus norvegicus, UniProt Q9R0C9)",radioligand binding,rat,,156.8 ± 1.2 nM
COC(=O)C1(C)C=C(C(=O)Nc2cccc(C(=O)Nc3ccc(Nc4nccc(-c5cccnc5)n4)c(C)c3)c2)C(=O)C1 (centres unmarked),MAPK8,SPR two-step reversible model,,,1.6 nM
COc1cccc(-c2c(C#N)c(N)nc(SCc3ncc[nH]3)c2C#N)c1,"ADORA1 (Homo sapiens, UniProt P30542)",radioligand displacement,HEK293 membranes,"1 h, 25 °C, with: 0.5 nM [3H]DPCPX",3.1 ± 0.4 nM
CCCCCCCCC(CCCCCCCC=CCCCCCCCC(CCCCCCCC)C(=O)OCC1(CO)CC(=C(C)C)C(=O)O1)C(=O)OCC1(CO)CC(=C(C)C)C(=O)O1 (racemic),Prkcd C1b domain,"binding, [3H]PDBu competition",,"5 min, 37 °C, with: phosphatidylserine 100 µg/mL",2.52 ± 0.46 nM
Cc1cc(-c2cc3nc(-c4ccc(N5CCC(F)CC5)nc4)ccc3s2)cnn1,"Alpha-synuclein, PD brain aggregates (SNCA, Homo sapiens, UniProt P37840)",binding,Parkinson's disease brain homogenate,with: [3H]asyn-44 1 nM,12.1 nM
CCCCCCCCC(CCC=CCCC(CCCCCCCC)C(=O)OCC1(CO)CC(=C(C)C)C(=O)O1)C(=O)OCC1(CO)CC(=C(C)C)C(=O)O1 (racemic),Prkcd C1b domain,"binding, [3H]PDBu competition",,"5 min, 37 °C, with: phosphatidylserine 100 µg/mL",2.07 ± 0.08 nM
O=C(O)c1cc(C(=O)N[C@@H](CS)C(=O)O)cc([C@H]2CCN[C@@H]2C(=O)O)c1,"Glutamate receptor ionotropic, kainate 3","binding, radioligand binding",Sf9 membranes,"homomeric receptor, with: [3H]kainate",10000 to 50000 nM
C=C1CC2/C=C/C(C)(C)CC=C3CC(CO)(COC(=O)CC(O)CC4CC(=C)CC(CC(C1)O2)O4)OC3=O (centres unmarked),"PRKCA (Homo sapiens, UniProt P17252)",,,,363 ± 42 nM
CCOC(=O)N(CC)C(=O)/C(C#N)=C/c1ccc(Cl)c(Cl)c1,"PRKCA-binding protein, PDZ domain (Pick1, Rattus norvegicus, UniProt Q9EP80)","binding, fluorescence polarization",,with: labelled hDAT C-terminal peptide,40000 ± 3100 nM
COC(=O)C1(C)C=C(C(=O)NCC(C)(C)O)C(=O)CC1 (centres unmarked),MAPK8,"D-peptide displacement, fluorescence polarization",,,> 200000 nM
O=C(OCc1ccccc1)c1ccccc1OC1CCNCC1,"Glycylpeptide N-tetradecanoyltransferase (Plasmodium falciparum, UniProt Q9U419)","enzyme activity, inhibitor, CPM fluorescence",,with: substrate 4.0 µM,> 100000 nM
CCC(NC(=O)C(CC(C)C)NC(=O)Cc1ccncc1)C(=O)C(=O)NCc1cc(OC)cc(OC)c1 (centres unmarked),"CAPN1 (Homo sapiens, UniProt P07384)","enzyme activity, inhibitor, Suc-Leu-Tyr-AMC hydrolysis",purified enzyme,,63 ± 16 nM
COC(=O)C1(C)C=C(C(=O)NC(C)(C)CO)C(=O)CC1 (centres unmarked),MAPK8,"D-peptide displacement, fluorescence polarization",,,> 200000 nM
NC(=O)c1cccc(C#CCNCC2OC(n3cnc4c(N)ncnc43)C(O)C2O)c1 (centres unmarked),"NNMT (Homo sapiens, UniProt P40261)","binding, fluorescence polarisation competition",,"30 min, room temperature, enzyme 0.5 µM, with: fluorescent probe 5 nM",5600 ± 1200 nM
O[C@@H](c1ccc(F)cc1)C(F)(F)CCN1CCC(O)(c2ccc(Cl)cc2)CC1 (racemic),"DRD4 (Homo sapiens, UniProt P21917)",,,,384 ± 58 nM
CC[N+]1=C(C=CC=CC=C2N(CCCCCC(=O)NCCCCC(NC(=O)CCCCCCC(=O)NCCCC[C@H](NC(=O)N[C@@H](CCC(=O)O)C(=O)O)C(=O)O)C(=O)O)c3ccc4c(S(=O)(=O)O)cc(S(=O)(=O)O)cc4c3C2(C)C)C(C)(C)c2c1ccc1c(S(=O)(=O)O)cc(S(=O)(=O)[O-])cc21 (some centres unmarked),"FOLH1 (Homo sapiens, UniProt Q04609)","enzyme activity, inhibitor",,"compound in water, with: [3H]NAAG 30 nM",0.05 ± 0.002 nM
O=C(O)c1cc(C(=O)N[C@@H](Cc2cnc[nH]2)C(=O)O)cc([C@H]2CCN[C@@H]2C(=O)O)c1,"Glutamate receptor ionotropic, kainate 3","binding, radioligand binding",Sf9 membranes,"homomeric receptor, with: [3H]kainate",6230 ± 2690 nM

# Excerpt of the above:
SMILES,target,test,system,conditions,Ki
COc1cccc(-c2c(C#N)c(N)nc(SCc3ncc[nH]3)c2C#N)c1,"ADORA1 (Homo sapiens, UniProt P30542)",radioligand displacement,HEK293 membranes,"1 h, 25 °C, with: 0.5 nM [3H]DPCPX",3.1 ± 0.4 nM
CCCCCCCCC(CCCCCCCC=CCCCCCCCC(CCCCCCCC)C(=O)OCC1(CO)CC(=C(C)C)C(=O)O1)C(=O)OCC1(CO)CC(=C(C)C)C(=O)O1 (racemic),Prkcd C1b domain,"binding, [3H]PDBu competition",,"5 min, 37 °C, with: phosphatidylserine 100 µg/mL",2.52 ± 0.46 nM
Cc1cc(-c2cc3nc(-c4ccc(N5CCC(F)CC5)nc4)ccc3s2)cnn1,"Alpha-synuclein, PD brain aggregates (SNCA, Homo sapiens, UniProt P37840)",binding,Parkinson's disease brain homogenate,with: [3H]asyn-44 1 nM,12.1 nM
